Experimental data collected from several papers.
Every numbered part comes from another study and shows a few of its results, in no order. Changes are numbered by the printed parent chain.

Study 1 — technique: RNA Bind-n-Seq; form: RNA; medium: in vitro; concentration: 1 µM; setting: whole 134-nt RNA, ends assumed; together with: 150 mM KCl; relative to: input library; reading: higher = stronger binding; measurement: log2 enrichment
Target: Ras GTPase-activating protein-binding protein 1, RRM domain (G3BP1, Homo sapiens, UniProt Q13283)
Sequence of UniProt Q13283 (whole entry, looked up): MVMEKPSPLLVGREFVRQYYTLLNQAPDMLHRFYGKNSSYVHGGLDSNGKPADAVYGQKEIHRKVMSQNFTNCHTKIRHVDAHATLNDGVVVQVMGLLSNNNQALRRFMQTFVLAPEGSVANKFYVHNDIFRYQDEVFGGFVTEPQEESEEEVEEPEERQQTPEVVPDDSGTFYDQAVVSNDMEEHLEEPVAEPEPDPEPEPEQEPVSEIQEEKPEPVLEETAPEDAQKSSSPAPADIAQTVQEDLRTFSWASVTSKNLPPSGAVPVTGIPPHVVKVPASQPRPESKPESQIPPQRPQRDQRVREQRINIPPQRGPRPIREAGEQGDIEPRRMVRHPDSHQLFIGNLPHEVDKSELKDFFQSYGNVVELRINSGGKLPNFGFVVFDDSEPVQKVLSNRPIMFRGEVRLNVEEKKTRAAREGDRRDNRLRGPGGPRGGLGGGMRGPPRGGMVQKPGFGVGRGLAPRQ
Shared flanks, not repeated: GGGAGUUCUACAGUCCGACGAUC … UGGAAUUCUCGGGUGUCAAGG
CCUGUGCUACACAUCGUAUGUACCGAAUCGGCCCCCCCGGGCCCCCCCGGGCCCCCCCGGGAAAGUAUUAUGUUACGCCGUUCGGAUCUG: -0.6
GCUGUUGGAGUGGAUCCGCCGCACAAUCCCGUGGCUGGAGAACCGGGUGCCCGAGAACACCAUGCAUGCCAUGCAACAGAAGCUGGAGGA: -0.225
AAGUCCUGUGCUACACAUCGUAUGUACCGAAUCGGGGAAAGGGGAAAGGGGAGGGGAAAGUAUUAUGUUACGCCGUUCGGAUCUGCACUU: 1.25
UGGAGCCCAACCUGUGCCGCUCAGUCCUCAUUGCCAACACGGUCCGGCAGAUCCAAGAGGAGAUGACGCAGGAUGGGACGUGGCGCACAG: -0.527
AGUCCUGUGCUACACAUCGUAUGUACCGAAUCGGGGUUUUGGGUUUUGGGUUUUGGGGAAAGUAUUAUGUUACGCCGUUCGGAUCUGCAC: 0.417
UCAAGUCCUGUGCUACACAUCGUAUGUACCGAAUCGGGUUUGGUUUGGGUUUGGAAAGUAUUAUGUUACGCCGUUCGGAUCUGCACUUCC: -0.319
CACAGACAACACGCACCCACACAGACACAGAGGGAAGGGGUUAGGAUGGGGACAGGGUGCACAGCAGGGCGGGGUAGGACCCCAGCCCCU: 0.175
UGGUGUUCAUAUUGCUGAUGUGAGCCAUUUUAUUAGGCCAGGAAAUGCCUUGGAUCAAGAAUCAGCCAGAAGAGGAACAACUGUGUAUCU: -0.178
CUGUGCUACACAUCGUAUGUACCGAAUCGGGUUUUUUGGGGUUUUUUGGGGUUUUUUGGGGAAAGUAUUAUGUUACGCCGUUCGGAUCUG: 0.0609
CAAGUCCUGUGCUACACAUCGUAUGUACCGAAUCGGGGUUUGGGGAGGGGAGGGGAAAGUAUUAUGUUACGCCGUUCGGAUCUGCACUUC: 0.915

Study 2 — technique: RNA Bind-n-Seq; form: RNA; medium: in vitro; concentration: 100 nM; relative to: input RNA pool; reading: higher = stronger binding; measurement: bound/input enrichment
Target: RING finger protein unkempt homolog, zinc fingers 1-6, SBP tag (UNK, Homo sapiens, UniProt Q9C0B0, residues 30-357)
Sequence of UniProt Q9C0B0 (30-357, looked up): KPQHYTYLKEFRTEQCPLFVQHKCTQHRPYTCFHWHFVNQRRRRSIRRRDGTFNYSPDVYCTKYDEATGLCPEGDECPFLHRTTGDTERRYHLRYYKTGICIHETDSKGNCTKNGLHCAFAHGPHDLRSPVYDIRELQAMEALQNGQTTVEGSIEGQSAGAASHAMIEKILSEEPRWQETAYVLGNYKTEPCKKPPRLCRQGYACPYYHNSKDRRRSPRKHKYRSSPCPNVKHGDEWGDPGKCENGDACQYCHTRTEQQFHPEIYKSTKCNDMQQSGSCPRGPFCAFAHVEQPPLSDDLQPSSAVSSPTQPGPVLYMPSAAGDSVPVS
Setting: RNA with constant flanks, vertebrate orthologous sites, ends assumed
Shared flanks, not repeated: GGGAGUUCUACAGUCCGACGAUC … CAACAGAGGAUUGAGCAUCA
CAGCUGAUUCACUGAUUGGGAGAGCUGCACAUAUAGCUGUUCUUGAUUCUGAAAUAUUUUUAGAGAAAUUUUUUCUGGUUGCUGCCCUUAAAUAUUUCCAAUAGGAUAAAAGCAUUGUUA: 0.971 ratio
CUCCCUCAGCGACAGUAUGCCAUCUGUAGCGGAUUCCCACUCUAGUCAUUUUUCAGAAUUUAGCUGUUCUGACUUAGAAAGCAUGAAAACUUCUUGUAGUCAUGGUUCCAGUGAUUAUCA: 1.48 ratio
UUUUAUUGAUCAGGUCUGUAAAUGUGUACUAAAAAAAUCAGAGUUUAUUUAUAAGCAGAAUAGUUUAUUUAAAGAGAAGGUCUUUUCCUUAUUGAUAUCAUGGUAUGCAUUAAUUCCAUU: 0.243 ratio
GCCAUGAAAGAGCAGCCCUUCUCCCAGCCCCCCUUUCACUAGGAGAUACAAACGUUACUAUAGAAGAGCAAUUAAACUCAAUAAAUUUAUCUUUUCAGGAUGAUCCAGACUCCAGUACCA: 1.1 ratio
CACAAUCUCUACUUAAGUAGGUAUUUACAUACCACAUUAAGCCUUCAUUUUACAUAUUUACAGCUUUUCUGUUUUACAGAUGAGACAAAAGAAUUUCAUGCUUAAAGUUAAAUGUGGUCU: 0.379 ratio
ACCUCAUGAACUUUUAAGCUAUCAUAAGUUGUGGUUGUUUUAGAUAGUGACUGUCUUCUGUAGAGCUUUCCCCUGUUUUCUGCCUCCUCCUCUUUUCCCUGUUCCAAAGGUGGAUUUCAC: 0.376 ratio
AAUUACACUGAUACUGAAGUUAAAAUUAAAAGGAUAUCCAAGGUUAUGAUAAAGCGUGUGUUGGUAGUUACUAAAAGAACCUUAGCUGUUAUUGCCUUGUAUUUCUAUCUCUUGUUUCAG: 0.384 ratio
UUACAGUCAUUGAUGGACUCUAUUUUUUUAUUAUUACUUGGACCUUGGUCGUUUUUAUACUAGCAAAAUGUCUUGUUUUAAUUUGUGUUUUUUUUUGGGGGGGUGGGAGUGAACUUGCUG: 1.82 ratio
GCAAUGCCUUCCCGAGCUUGUUCCAGCCAGCACUCGUACUGGGGUCUUCUGACUCUGAAUCUAUAGAAGCCUUUGAUUAUAACUAUUACAUGUGAAAAGAUGAGGAUAAAAUACAACAGA: 0.494 ratio

Study 3 — technique: universal PBM; form: double-stranded DNA, one strand shown; medium: in vitro; concentration: not given; reading: higher = stronger binding; measurement: E-score
Target: Sal-like protein 4, full length isoform B (SALL4, Homo sapiens, UniProt Q9UJQ4-2, residues 1-616)
Setting: 8-mer, flanks averaged, mean of replicates
CCCCTTCG: -0.275
AACCGACG: -0.137
TGGTCAAA: 0.0429
ATACCGGA: 0.0479
ATTGCTGA: 0.158
GATGCATC: 0.0524
AGATCACG: -0.0433
GAGCCCGA: -0.213
GGCCAACC: -0.278
AAGCACAG: -0.0063
CAGCAACG: 0.026
CGGGGAGA: -0.402
AGCATTTC: 0.195
CACTGCAC: -0.121
GTAGTTTA: 0.216
AGTAGACC: -0.0758
CCCGCCGG: -0.363
CACGTACC: -0.0119
GCGCGGCA: -0.254

Study 4 — technique: protein binding microarray; form: double-stranded DNA, one strand shown; medium: in vitro; concentration: not given; relative to: not given; reading: higher = stronger binding; measurement: E-score
Target: Histone acetyltransferase KAT6A, winged helix 2, GST fusion (KAT6A, Homo sapiens, UniProt Q92794, residues 85-181)
Setting: 8-mer, flanks averaged, mean of 2 arrays, mostly near background
Target sequence (chain): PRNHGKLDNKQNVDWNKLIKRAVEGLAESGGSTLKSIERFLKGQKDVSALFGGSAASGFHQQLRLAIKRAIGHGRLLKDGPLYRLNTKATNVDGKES
CGCCTAGC: 0.0296
CTTCGGAA: 0.234
CTCGGGTA: 0.0536
GAATGAGA: -0.0459
CGCAACAG: 0.0889
GCCTCCAC: 0.0657
CCAGTTCC: 0.0767
AGCAAAGA: 0.0661
GCCCGCAA: 0.155
ATTACTGC: 0.161
AAGGTAGG: -0.0378
CCTGCGCA: 0.024
TATTCACA: 0.0274
GCCCGTCA: -0.0123
ACGGTGCG: 0.13
AACGCCTG: -0.0183
ACCGCCGT: -0.0492
GATACATC: -0.158
TACTTCGA: 0.161
CTGCACAG: -0.0578
CTGCCTCC: 0.00224
CACGGGAG: -0.0376
AAACTCTT: -0.0574
ACCACTCC: -0.000685
CTAGATTC: -0.131

Study 5 — technique: DHFR PCA, deep sequencing; medium: yeast; together with: (+)-ABA 17 µM; relative to: wild-type fitted maximum; reading: higher = stronger binding; measurement: relative binding score
Target: ABI1, truncated, D143A, DHFR fusion (Arabidopsis thaliana)
Setting: methotrexate growth selection, single substitutions
Parent: PYL1, truncated, DHFR fusion (Arabidopsis thaliana); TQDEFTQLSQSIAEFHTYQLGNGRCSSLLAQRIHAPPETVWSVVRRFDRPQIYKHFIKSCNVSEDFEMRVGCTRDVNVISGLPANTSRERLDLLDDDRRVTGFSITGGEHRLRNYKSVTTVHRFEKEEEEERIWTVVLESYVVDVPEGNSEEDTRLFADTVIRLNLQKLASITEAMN
T1G: 80.1%
N114G: 78.4%
N22C: 74%
F66G: 83.6%
I12L: 50.6%
S171Q: 103%
K58R: 86.6%
T120P: 1.98%
I105K: -5.78%
Q51Y: 44.4%
E109R: 55.2%
E128K: 96.9%
P50G: 2.64%
V76R: -2.07%
A35T: 34.7%

For quick reference, copied from above (study 3):
ATTGCTGA: 0.158
GATGCATC: 0.0524
AGATCACG: -0.0433
GAGCCCGA: -0.213
GGCCAACC: -0.278
AAGCACAG: -0.0063
CAGCAACG: 0.026
CGGGGAGA: -0.402
AGCATTTC: 0.195
